Assay results gathered from unrelated publications.
Every numbered part comes from another study and shows a few of its results, in no order. Several values in a cell are separate wells, animals, samples, runs or records.
UniProt P00519, sequence (whole entry, unmodified, looked up): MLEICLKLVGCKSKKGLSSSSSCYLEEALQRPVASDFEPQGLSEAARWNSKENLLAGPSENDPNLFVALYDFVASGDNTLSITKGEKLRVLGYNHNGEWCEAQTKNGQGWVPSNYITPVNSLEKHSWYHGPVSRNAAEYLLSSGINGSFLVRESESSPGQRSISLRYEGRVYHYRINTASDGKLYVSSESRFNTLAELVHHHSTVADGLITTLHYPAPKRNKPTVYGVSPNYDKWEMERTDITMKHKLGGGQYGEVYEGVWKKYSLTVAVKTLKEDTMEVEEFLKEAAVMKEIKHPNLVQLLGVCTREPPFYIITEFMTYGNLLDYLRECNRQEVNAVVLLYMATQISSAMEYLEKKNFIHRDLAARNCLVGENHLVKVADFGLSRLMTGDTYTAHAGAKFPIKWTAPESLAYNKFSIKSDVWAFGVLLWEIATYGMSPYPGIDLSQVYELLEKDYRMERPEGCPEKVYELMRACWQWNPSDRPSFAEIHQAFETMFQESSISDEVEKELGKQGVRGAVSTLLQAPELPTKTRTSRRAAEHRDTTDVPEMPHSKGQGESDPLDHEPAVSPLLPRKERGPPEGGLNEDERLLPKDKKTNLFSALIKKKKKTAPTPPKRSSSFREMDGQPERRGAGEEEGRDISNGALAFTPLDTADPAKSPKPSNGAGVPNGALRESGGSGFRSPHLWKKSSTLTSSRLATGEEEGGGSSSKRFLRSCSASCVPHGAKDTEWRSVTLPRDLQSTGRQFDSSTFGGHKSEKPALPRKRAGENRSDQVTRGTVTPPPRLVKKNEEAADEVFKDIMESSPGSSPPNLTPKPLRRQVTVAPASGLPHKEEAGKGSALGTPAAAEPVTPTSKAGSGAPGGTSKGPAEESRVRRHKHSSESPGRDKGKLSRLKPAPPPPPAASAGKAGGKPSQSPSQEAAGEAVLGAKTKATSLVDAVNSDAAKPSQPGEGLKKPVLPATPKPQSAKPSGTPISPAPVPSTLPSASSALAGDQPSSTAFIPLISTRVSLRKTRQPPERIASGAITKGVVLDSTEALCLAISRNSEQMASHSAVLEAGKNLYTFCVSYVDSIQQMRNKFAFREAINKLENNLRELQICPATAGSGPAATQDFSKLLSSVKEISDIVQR
UniProt Q04771, sequence (whole entry, looked up): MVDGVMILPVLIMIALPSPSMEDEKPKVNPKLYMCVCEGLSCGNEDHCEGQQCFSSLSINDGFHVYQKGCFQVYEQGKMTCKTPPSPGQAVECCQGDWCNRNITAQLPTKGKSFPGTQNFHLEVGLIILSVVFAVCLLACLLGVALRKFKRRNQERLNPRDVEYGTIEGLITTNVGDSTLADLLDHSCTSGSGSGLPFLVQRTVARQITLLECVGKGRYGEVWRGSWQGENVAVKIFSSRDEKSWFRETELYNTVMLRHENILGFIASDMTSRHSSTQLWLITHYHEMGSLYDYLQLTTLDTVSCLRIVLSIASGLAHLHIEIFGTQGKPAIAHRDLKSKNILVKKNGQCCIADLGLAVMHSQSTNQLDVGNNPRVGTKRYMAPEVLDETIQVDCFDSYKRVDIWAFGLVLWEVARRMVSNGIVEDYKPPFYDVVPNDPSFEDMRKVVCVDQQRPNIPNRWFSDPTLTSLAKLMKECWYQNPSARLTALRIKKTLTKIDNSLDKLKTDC
UniProt O75914, sequence (whole entry, looked up): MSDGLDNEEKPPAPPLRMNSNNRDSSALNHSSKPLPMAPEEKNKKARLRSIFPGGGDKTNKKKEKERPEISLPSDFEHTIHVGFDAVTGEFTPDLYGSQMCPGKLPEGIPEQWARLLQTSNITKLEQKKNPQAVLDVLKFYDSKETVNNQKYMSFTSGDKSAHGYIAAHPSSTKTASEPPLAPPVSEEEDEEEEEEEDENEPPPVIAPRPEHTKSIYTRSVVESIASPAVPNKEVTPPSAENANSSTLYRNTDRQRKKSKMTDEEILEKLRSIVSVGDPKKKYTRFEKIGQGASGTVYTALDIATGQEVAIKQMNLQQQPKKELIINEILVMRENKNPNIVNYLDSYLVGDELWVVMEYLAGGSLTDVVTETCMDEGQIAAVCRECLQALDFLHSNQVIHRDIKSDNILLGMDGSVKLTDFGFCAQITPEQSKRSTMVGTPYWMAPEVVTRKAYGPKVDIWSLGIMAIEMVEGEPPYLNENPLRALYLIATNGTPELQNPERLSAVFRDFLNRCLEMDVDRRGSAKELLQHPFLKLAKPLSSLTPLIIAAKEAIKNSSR
UniProt Q9NWZ3, sequence (whole entry, looked up): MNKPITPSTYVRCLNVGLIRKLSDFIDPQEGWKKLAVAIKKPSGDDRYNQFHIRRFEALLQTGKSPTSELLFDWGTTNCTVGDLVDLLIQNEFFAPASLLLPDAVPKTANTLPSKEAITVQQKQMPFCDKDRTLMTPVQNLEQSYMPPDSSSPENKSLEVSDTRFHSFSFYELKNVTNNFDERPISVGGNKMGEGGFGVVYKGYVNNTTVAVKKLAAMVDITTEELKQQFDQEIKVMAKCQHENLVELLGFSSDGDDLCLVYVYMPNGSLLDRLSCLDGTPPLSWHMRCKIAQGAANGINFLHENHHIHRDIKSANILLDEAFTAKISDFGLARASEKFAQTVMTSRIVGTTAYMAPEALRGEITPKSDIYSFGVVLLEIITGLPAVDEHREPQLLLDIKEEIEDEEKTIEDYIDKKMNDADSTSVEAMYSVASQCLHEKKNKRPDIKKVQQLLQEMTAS
UniProt Q9P1W9, sequence (whole entry, looked up): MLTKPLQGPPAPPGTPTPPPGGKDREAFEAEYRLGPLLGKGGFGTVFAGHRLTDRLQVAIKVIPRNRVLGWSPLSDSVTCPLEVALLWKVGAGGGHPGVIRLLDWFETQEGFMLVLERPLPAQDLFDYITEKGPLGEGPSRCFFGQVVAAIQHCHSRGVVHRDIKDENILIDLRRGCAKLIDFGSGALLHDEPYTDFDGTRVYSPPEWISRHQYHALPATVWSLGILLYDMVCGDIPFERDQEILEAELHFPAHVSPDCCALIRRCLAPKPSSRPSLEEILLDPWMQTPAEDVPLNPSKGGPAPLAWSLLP
UniProt P49336, sequence (whole entry, looked up): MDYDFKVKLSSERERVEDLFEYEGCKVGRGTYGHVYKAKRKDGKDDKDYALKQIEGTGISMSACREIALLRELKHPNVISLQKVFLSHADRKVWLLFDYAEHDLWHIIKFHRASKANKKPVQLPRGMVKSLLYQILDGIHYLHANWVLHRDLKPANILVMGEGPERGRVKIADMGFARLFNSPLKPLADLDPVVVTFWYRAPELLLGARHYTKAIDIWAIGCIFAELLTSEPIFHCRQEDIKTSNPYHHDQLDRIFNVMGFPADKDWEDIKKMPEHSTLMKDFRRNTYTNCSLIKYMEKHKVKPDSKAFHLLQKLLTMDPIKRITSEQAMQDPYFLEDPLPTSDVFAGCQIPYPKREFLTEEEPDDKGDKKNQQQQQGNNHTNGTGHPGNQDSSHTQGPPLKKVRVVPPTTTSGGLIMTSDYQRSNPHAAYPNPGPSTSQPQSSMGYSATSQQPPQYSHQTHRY
UniProt P24723, sequence (whole entry, looked up): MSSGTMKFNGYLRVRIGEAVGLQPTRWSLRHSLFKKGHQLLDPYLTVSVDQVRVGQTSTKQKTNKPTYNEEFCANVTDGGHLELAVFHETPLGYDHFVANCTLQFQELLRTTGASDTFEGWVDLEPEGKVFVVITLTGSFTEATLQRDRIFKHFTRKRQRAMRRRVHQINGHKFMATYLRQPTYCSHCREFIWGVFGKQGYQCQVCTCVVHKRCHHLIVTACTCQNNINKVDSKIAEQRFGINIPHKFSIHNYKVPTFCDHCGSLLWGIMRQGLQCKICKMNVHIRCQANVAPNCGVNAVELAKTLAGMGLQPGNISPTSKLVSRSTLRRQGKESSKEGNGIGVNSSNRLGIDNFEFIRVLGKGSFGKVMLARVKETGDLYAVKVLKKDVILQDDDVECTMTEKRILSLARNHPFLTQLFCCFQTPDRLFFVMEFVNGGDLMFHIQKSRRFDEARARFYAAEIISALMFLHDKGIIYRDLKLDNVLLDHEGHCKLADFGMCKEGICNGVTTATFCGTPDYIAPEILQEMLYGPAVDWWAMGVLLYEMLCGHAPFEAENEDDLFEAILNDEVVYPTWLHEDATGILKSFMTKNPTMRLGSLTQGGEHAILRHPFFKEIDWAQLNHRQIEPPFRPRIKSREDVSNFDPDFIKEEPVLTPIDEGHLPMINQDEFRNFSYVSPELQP

Study 1 — observed: enzyme activity; action: inhibitor; concentration: 0.5 µM; reference: control
Target: Serine/threonine-protein kinase Sgk1 (SGK1, Homo sapiens, UniProt O00141)
UniProt O00141, sequence (whole entry, looked up): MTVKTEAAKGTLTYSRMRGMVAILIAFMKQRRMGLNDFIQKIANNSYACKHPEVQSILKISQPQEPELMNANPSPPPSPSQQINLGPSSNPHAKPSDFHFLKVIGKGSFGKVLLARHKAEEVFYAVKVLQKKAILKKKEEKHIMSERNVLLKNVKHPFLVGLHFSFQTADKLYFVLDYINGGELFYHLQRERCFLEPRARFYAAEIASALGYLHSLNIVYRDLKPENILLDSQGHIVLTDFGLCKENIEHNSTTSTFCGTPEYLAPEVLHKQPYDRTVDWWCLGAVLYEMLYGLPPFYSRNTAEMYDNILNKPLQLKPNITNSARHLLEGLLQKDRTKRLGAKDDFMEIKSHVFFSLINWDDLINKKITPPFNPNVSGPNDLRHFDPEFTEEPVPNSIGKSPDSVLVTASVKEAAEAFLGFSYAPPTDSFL
Structure (SMILES)	remaining activity [%]
c1ccc(-c2[nH]ncc2-c2ccnc3ccccc23)nc1	103
CCOc1nc(NC(=O)Cc2cc(OC)ccc2OC)cc(N)c1C#N	105
C[C@@H]1CCN(C(=O)CC#N)C[C@@H]1N(C)c1ncnc2[nH]ccc12	123
O=c1cc(-c2cccc3c2Sc2ccccc2S3)oc(N2CCOCC2)c1	90.6
Cc1cn(-c2cc(NC(=O)c3ccc(C)c(Nc4nccc(-c5cccnc5)n4)c3)cc(C(F)(F)F)c2)cn1	125
CCN(CC)CCNC(=O)c1c(C)[nH]c(/C=C2\C(=O)Nc3ccc(Cl)cc32)c1C	49.6
COc1cc2c(cc1OC)-c1[nH]nc(Nc3cccc(F)c3)c1C2	99.8
N#C/C(=C\c1ccc(O)c(O)c1)C(=O)NCc1ccccc1	103
c1ccc(-c2cnc(Nc3ccc(OCCN4CCCC4)cc3)s2)cc1	83.6
Cc1cc2ncc(-c3ccccc3)nc2cc1C	103
COc1cc2ncnc(Nc3cccc(Cl)c3)c2cc1OC	91.3
Cc1nc2cc3nc(-c4cccs4)cnc3cc2n1C	95.9
CCN(CC)C(=O)c1ccc(Nc2nc(OCC3CCCCC3)c3[nH]cnc3n2)cc1	84.7
Nc1cccc(-c2cc3c(Oc4cccc(O)c4)ncnc3[nH]2)c1	101
O=C(NC(NC(=S)Nc1ccc(F)c([N+](=O)[O-])c1)C(Cl)(Cl)Cl)C(c1ccccc1)c1ccccc1 (stereo not drawn)	93.1
CCN(CC)CCNC(=O)c1c(C)[nH]c(/C=C2\C(=O)Nc3ccc(F)cc32)c1C	62.8
O=C1c2ccccc2-c2n[nH]c3cccc1c23	59.5
Ic1cccc(CSc2nnc(-c3ccncc3)o2)c1	99
COc1cc2ncnc(Nc3ccc(O)c(Br)c3)c2cc1OC	95.7
O=C(Nc1cccc(Nc2nccc(Nc3cccc(C(F)(F)F)c3)n2)c1)C1CC1	103
N#Cc1c(NC(=O)c2cccc3ccccc23)sc2c1CCCC2	108
O=C1C(Cl)=C(N2C(=O)CCC2=O)C(=O)c2ccccc21	104
Cn1nc2c3c(cccc31)C(=O)c1ccccc1-2	94.8
CN([C@@H](Cc1ccc(OS(=O)(=O)c2cccc3cnccc23)cc1)C(=O)N1CCN(c2ccccc2)CC1)S(=O)(=O)c1cccc2cnccc12	105
CN(C)C[C@H]1CCn2c(c(C3=C(c4cn(C)c5ccccc45)C(=O)NC3=O)c3ccccc32)C1	72.9

Study 2 — cell line: mouse MPNST tumor cells; method: high-content immunofluorescence imaging; refers to: nuclear SOX9; concentration: 10 µM; time: 12 h; notes: mean of 2 replicates; reference: DMSO control; reading: higher = more nuclear SOX9
Structure (SMILES)	nuclear SOX9 intensity
CO[C@H]1C[C@@H]2CC[C@@H](C)[C@@](O)(O2)C(=O)C(=O)N2CCCC[C@H]2C(=O)O[C@H]([C@H](C)C[C@@H]2CC[C@@H](OCCO)[C@H](OC)C2)CC(=O)[C@H](C)/C=C(\C)[C@@H](O)[C@@H](OC)C(=O)[C@H](C)C[C@H](C)/C=C/C=C/C=C/1C	90.6 % of DMSO
CS(=O)(=O)N(Cc1ccco1)C[C@@H](O)Cn1c2ccccc2c2ccccc21	97.9 % of DMSO
O=c1cc(NCCCN[C@@H]2CCOc3c(Br)cc(Br)cc32)[nH]c2ccsc12	105 % of DMSO
COc1ccccc1O	109 % of DMSO
Cc1cn([C@H]2C=C[C@@H](CO)O2)c(=O)[nH]c1=O	120 % of DMSO and 113 % of DMSO
Nc1ccccc1S(N)(=O)=O	105 % of DMSO
CCC(=O)OCC(=O)[C@@]1(OC(=O)CC)[C@@H](C)C[C@H]2[C@@H]3CCC4=CC(=O)C=C[C@]4(C)[C@@]3(Cl)[C@@H](O)C[C@@]21C	93 % of DMSO
CC1CCc2cc(F)cc3c(=O)c(C(=O)O)cn1c23 (stereo not drawn)	95.8 % of DMSO
CC[N+](C)(CC)CCOC(=O)C1c2ccccc2Oc2ccccc21	96.5 % of DMSO
CC(=O)OCC(=O)C1(O)CCC2C3CCC4=CC(=O)CCC4(C)C3C(O)CC21C (stereo not drawn)	96.3 % of DMSO
COc1cc(C(=O)OCCCN2CCCN(CCCOC(=O)c3cc(OC)c(OC)c(OC)c3)CC2)cc(OC)c1OC	247 % of DMSO
COC1(C2=NCCN2)COc2ccccc2O1 (stereo not drawn)	97 % of DMSO
CC[N+](C)(CC)CCOC(=O)C(O)(c1ccccc1)C1CCCCC1 (stereo not drawn)	96.6 % of DMSO
O=C(O)c1cn(-c2ccc(F)cc2)c2cc(N3CCNCC3)c(F)cc2c1=O	99.8 % of DMSO
CC(=O)Nc1nc2c(Oc3cc(-c4ccc(C(F)(F)F)cc4)ncn3)cccc2s1	92 % of DMSO
CC[N+](CC)(CC)CCOc1ccc(/C=C/c2ccccc2)cc1	84.2 % of DMSO
CCCC(=O)C1(c2ccccc2)CCN(C(=O)[C@@H](Cc2ccc(OC)cc2)NC(=O)[C@@H](N)Cc2cncn2C)CC1	122 % of DMSO
NC(=O)N/N=C/c1ccc([N+](=O)[O-])o1	106 % of DMSO
NC[C@@H]1O[C@@H](O[C@H]2[C@H](O)[C@@H](O[C@H]3O[C@H](CO)[C@@H](O)[C@H](N)[C@H]3O)[C@H](N)C[C@@H]2N)[C@@H](O)[C@H](O)[C@H]1O	95.9 % of DMSO

Study 3 — observed: RNA clamping; method: fluorescence polarization; concentration: concentration not given; together with: FAM-labelled poly r(AG)8 RNA; reading: higher = more clamping
Target: Eukaryotic initiation factor 4A-I (EIF4A1, Homo sapiens, UniProt P60842)
UniProt P60842, sequence (whole entry, looked up): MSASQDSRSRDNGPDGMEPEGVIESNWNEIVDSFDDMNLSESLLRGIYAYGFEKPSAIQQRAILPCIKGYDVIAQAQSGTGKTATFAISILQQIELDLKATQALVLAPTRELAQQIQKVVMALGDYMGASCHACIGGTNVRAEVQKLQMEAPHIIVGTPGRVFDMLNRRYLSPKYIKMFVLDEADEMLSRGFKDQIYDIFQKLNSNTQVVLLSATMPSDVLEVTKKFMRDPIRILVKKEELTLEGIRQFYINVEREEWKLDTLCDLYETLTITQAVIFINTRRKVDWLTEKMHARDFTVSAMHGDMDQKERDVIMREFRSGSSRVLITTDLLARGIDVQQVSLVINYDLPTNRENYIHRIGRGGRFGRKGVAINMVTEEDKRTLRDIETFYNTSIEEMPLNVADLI
SMILES	fluorescence polarization change
COC(=O)[C@@H]1[C@@H](O)[C@@]2(O)c3c(OC)cc(F)cc3O[C@@]2(c2ccc(Cl)cc2)[C@H]1c1ccccc1	30.2 mP
COC(=O)[C@@H]1[C@@H](c2ccccc2)[C@]2(c3ccc(OC)cc3)Oc3cc(OC)cc(OC)c3[C@@]23N=C(c2ccccc2)N[C@@]13O	24.2 mP
COc1ccc([C@@]23Oc4cc(OC)cc(OC)c4[C@]2(O)c2nc(-c4ccc(C)cc4)[nH]c(=O)c2[C@H]3c2ccccc2)cc1	-0.3 mP and 28.8 mP
COC(=O)[C@H]1[C@@H](O)[C@@]2(O)c3c(OC)cc(OC)cc3N(C)[C@@]2(c2ccc(Br)cc2)[C@@H]1c1ccccc1	17.6 mP
COc1ccc([C@@]23Oc4cc(OC)c(Cl)c(OC)c4[C@]2(O)c2nc4n(c(=O)c2[C@H]3c2ccccc2)CCC4)cc1	24.6 mP
COc1ccc([C@@]23Oc4cc(OC)cc(OC)c4[C@]2(O)[C@@H](O)[C@H](C(=O)c2ccco2)[C@H]3c2ccccc2)cc1	24.4 mP
COc1ccc([C@]23Oc4cc(OC)cc(OC)c4[C@](O)([C@H](C(=O)NCCCC(OC)OC)[C@H]2c2ccccc2)[C@H]3O)cc1	6.5 mP
COC(=O)[C@H]1C(=O)[C@@]2(NCC3CCOCC3)c3c(OC)cc(OC)cc3O[C@@]2(c2ccc(OC)cc2)[C@@H]1c1ccccc1	-12.1 mP
COc1ccc([C@@]23Oc4cc(OC)cc(OC)c4[C@]2(O)[C@H](O)[C@H](C(=O)NOCc2ccccc2)[C@H]3c2ccccc2)cc1	10.4 mP
COc1ccc([C@@]23Oc4cc(OC)cc(OC)c4[C@]2(O)[C@H](O)[C@H](C(=O)NCCCC(OC)OC)[C@H]3c2ccccc2)cc1	67.9 mP
C#CCOCCOCCNC(=O)CCCn1c(-c2ccccc2)nc2c(c1=O)[C@@H](c1ccccc1)[C@]1(c3ccc(OC)cc3)Oc3cc(OC)cc(OC)c3[C@]21O	24.1 mP
COc1ccc([C@@]23Oc4cc(OC)cc(OC)c4[C@]2(O)c2nc(-c4ccccc4)nc(OC)c2[C@H]3c2ccccc2)cc1	-7.1 mP

Study 4 — method: competition with immobilised ligand; concentration: 1 µM
SMILES: CN(C)C(=O)Cn1cc(-c2nc([C@@](C)(c3ccc(-c4cnc(N)nc4)cc3)C3CC3)no2)cn1
target	observed	remaining binding [%]
Tyrosine-protein kinase ABL1, phosphorylated (ABL1, Homo sapiens, UniProt P00519, F317L)	cell-free assay	88
Calcium/calmodulin-dependent protein kinase kinase 1 (CAMKK1, Homo sapiens, UniProt Q8N5S9)	cell-free assay	100
Mitogen-activated protein kinase 15 (MAPK15, Homo sapiens, UniProt Q8TD08)	cell-free assay	91
Protein kinase C eta type (PRKCH, Homo sapiens, UniProt P24723)	cell-free assay	100
Serine/threonine-protein kinase MARK2 (MARK2, Homo sapiens, UniProt Q7KZI7)	cell-free assay	100
Cyclin-dependent kinase 8 (CDK8, Homo sapiens, UniProt P49336)	cell-free assay	89
Serine/threonine-protein kinase mTOR (MTOR, Homo sapiens, UniProt P42345)	cell-free assay	100
Tyrosine-protein kinase Fyn (FYN, Homo sapiens, UniProt P06241)	cell-free assay	86
Interleukin-1 receptor-associated kinase 4 (IRAK4, Homo sapiens, UniProt Q9NWZ3)	cell-free assay	85
Tyrosine-protein kinase BTK (BTK, Homo sapiens, UniProt Q06187)	cell-free assay	73
Tyrosine-protein kinase ABL1, phosphorylated (ABL1, Homo sapiens, UniProt P00519, E255K)	binding	95
Tyrosine-protein kinase receptor Tie-1 (TIE1, Homo sapiens, UniProt P35590)	cell-free assay	90
Activin receptor type-1 (ACVR1, Homo sapiens, UniProt Q04771)	cell-free assay	84
5'-AMP-activated protein kinase catalytic subunit alpha-2 (PRKAA2, Homo sapiens, UniProt P54646)	cell-free assay	100
Serine/threonine-protein kinase pim-2 (PIM2, Homo sapiens, UniProt Q9P1W9)	cell-free assay	100
Serine/threonine-protein kinase D2 (PRKD2, Homo sapiens, UniProt Q9BZL6)	cell-free assay	100
Ribosomal protein S6 kinase alpha-1, N-terminal kinase domain (RPS6KA1, Homo sapiens, UniProt Q15418)	cell-free assay	93
Mitogen-activated protein kinase kinase kinase kinase 4 (MAP4K4, Homo sapiens, UniProt O95819)	cell-free assay	90
Serine/threonine-protein kinase OSR1 (OXSR1, Homo sapiens, UniProt O95747)	cell-free assay	86
Peripheral plasma membrane protein CASK (CASK, Homo sapiens, UniProt O14936)	cell-free assay	82
Serine/threonine-protein kinase PAK 3 (PAK3, Homo sapiens, UniProt O75914)	cell-free assay	87
Cyclin-dependent kinase 4, with cyclin D1 (CDK4, Homo sapiens, UniProt P11802)	cell-free assay	94
Ephrin type-A receptor 3 (EPHA3, Homo sapiens, UniProt P29320)	cell-free assay	100
Serine/threonine-protein kinase 26 (STK26, Homo sapiens, UniProt Q9P289)	cell-free assay	97
Microtubule-associated serine/threonine-protein kinase 1 (MAST1, Homo sapiens, UniProt Q9Y2H9)	cell-free assay	97

For quick reference, copied from above (study 1):
Structure (SMILES)	remaining activity [%]
CCN(CC)CCNC(=O)c1c(C)[nH]c(/C=C2\C(=O)Nc3ccc(F)cc32)c1C	62.8
CCN(CC)CCNC(=O)c1c(C)[nH]c(/C=C2\C(=O)Nc3ccc(Cl)cc32)c1C	49.6
CN([C@@H](Cc1ccc(OS(=O)(=O)c2cccc3cnccc23)cc1)C(=O)N1CCN(c2ccccc2)CC1)S(=O)(=O)c1cccc2cnccc12	105
c1ccc(-c2cnc(Nc3ccc(OCCN4CCCC4)cc3)s2)cc1	83.6
CN(C)C[C@H]1CCn2c(c(C3=C(c4cn(C)c5ccccc45)C(=O)NC3=O)c3ccccc32)C1	72.9
N#Cc1c(NC(=O)c2cccc3ccccc23)sc2c1CCCC2	108
COc1cc2ncnc(Nc3cccc(Cl)c3)c2cc1OC	91.3
COc1cc2c(cc1OC)-c1[nH]nc(Nc3cccc(F)c3)c1C2	99.8
c1ccc(-c2[nH]ncc2-c2ccnc3ccccc23)nc1	103
O=C(Nc1cccc(Nc2nccc(Nc3cccc(C(F)(F)F)c3)n2)c1)C1CC1	103
Ic1cccc(CSc2nnc(-c3ccncc3)o2)c1	99
CCN(CC)C(=O)c1ccc(Nc2nc(OCC3CCCCC3)c3[nH]cnc3n2)cc1	84.7
Cc1cc2ncc(-c3ccccc3)nc2cc1C	103
